Experimental data gathered from unrelated publications.
Numbered parts are unrelated; each lists some results of a single study.

Series 1 — method: RNA Bind-n-Seq; form: RNA; medium: in vitro; concentration: 1 µM; setting: whole 134-nt RNA, ends assumed; with: 150 mM KCl; reference: input library; direction: higher = stronger binding
Target: Ras GTPase-activating protein-binding protein 1, C-terminal RGG region (G3BP1, Homo sapiens, UniProt Q13283)
Sequence of UniProt Q13283 (whole entry, looked up): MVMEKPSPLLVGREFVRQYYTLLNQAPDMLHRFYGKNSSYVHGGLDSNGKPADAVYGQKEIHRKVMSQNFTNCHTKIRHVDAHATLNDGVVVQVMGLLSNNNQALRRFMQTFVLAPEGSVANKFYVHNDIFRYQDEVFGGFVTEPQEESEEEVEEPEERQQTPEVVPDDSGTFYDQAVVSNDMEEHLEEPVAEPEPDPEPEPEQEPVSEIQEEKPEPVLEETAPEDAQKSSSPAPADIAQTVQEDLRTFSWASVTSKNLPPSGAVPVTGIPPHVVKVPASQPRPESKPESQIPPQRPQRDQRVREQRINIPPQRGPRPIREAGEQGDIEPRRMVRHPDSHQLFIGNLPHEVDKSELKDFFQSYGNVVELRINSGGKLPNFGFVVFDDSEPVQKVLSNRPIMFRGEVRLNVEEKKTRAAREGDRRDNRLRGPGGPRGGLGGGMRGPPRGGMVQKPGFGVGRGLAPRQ
Strand	log2 enrichment
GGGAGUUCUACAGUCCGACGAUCGUGCUACACAUCGUAUGUACCGAAUCGGGGAAAAAAAGGGGAAAAAAAGGGGAAAAAAAGGGGAAAGUAUUAUGUUACGCCGUUCGGAUCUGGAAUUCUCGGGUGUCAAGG	0.386
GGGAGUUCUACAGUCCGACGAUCAGUCCUGUGCUACACAUCGUAUGUACCGAAUCGGGGAAAAAAAGGGGUGGGGUGGGGAAAGUAUUAUGUUACGCCGUUCGGAUCUGCACUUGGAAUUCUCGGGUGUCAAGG	1.41
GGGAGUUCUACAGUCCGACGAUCAGUCCUGUGCUACACAUCGUAUGUACCGAAUCGGCCCCCGGGGCCCCCGGCCCCCGGGAAAGUAUUAUGUUACGCCGUUCGGAUCUGCACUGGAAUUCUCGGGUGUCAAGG	-1.92
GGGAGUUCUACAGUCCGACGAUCUCAAGUCCUGUGCUACACAUCGUAUGUACCGAAUCGGGGAAGGGAAGGAAGGGGAAAGUAUUAUGUUACGCCGUUCGGAUCUGCACUUCCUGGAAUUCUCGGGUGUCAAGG	0.99
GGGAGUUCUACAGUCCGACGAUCAAGUCCUGUGCUACACAUCGUAUGUACCGAAUCGGGAAAAGGGGAAAAGGAAAAGGAAAGUAUUAUGUUACGCCGUUCGGAUCUGCACUUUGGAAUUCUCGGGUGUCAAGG	-1.63
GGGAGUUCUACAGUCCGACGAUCGAGCAAAGAGCCAUUCAGCUUCAGUCUUUACAUACCAUGAAUAAAACAUUAAAACAUCAUAUGGAGAAGUUUACAUGGUGAUUGUUCACCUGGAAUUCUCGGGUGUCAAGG	-1
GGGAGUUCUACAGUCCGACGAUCAGUCCUGUGCUACACAUCGUAUGUACCGAAUCGGGUUUGGGUUUUUUUGGGAAAGGGAAAGUAUUAUGUUACGCCGUUCGGAUCUGCACUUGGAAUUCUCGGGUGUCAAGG	0.652

Series 2 — method: protein binding microarray; form: double-stranded DNA, one strand shown; medium: in vitro; concentration: not given; reference: not given; direction: higher = stronger binding
Target: Histone acetyltransferase KAT6A, winged helix 1, GST fusion (KAT6A, Homo sapiens, UniProt Q92794, residues 1-85)
Setting: 8-mer, flanks averaged, mean of 2 arrays, mostly near background
Target sequence (chain): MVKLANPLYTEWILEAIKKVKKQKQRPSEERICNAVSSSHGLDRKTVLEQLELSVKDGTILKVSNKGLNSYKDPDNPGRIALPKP
Strand	E-score
AGGCCCCT	-0.0772
ATCCGGAC	0.00438
CTCCATCA	-0.148
AGGTCACT	-0.281
GCAAGTGA	-0.14
GCTACCTA	-0.162
CAGAAGGG	-0.135
ATGCAGCA	-0.246
CGATAAAC	0.111
GTTTTTAA	0.00892
CTACATAG	-0.275
GGAGTAAA	-0.113
AAGGATGA	-0.0955
AGTCAAAG	-0.058
ATAATACA	-0.1
GTTTTTTA	-0.0549
GAATACAA	-0.0773
CCTATTGA	-0.209

Series 3 — method: competition protein-binding microarray; form: double-stranded DNA, one strand shown; medium: in vitro; concentration: 2 µM; with: Pho4 competitor, 0.05 µM; direction: higher = stronger binding
Target: Centromere-binding protein 1, full length, His-tagged (CBF1, Saccharomyces cerevisiae, UniProt P17106, residues 1-351)
Sequence of UniProt P17106 (whole entry, looked up): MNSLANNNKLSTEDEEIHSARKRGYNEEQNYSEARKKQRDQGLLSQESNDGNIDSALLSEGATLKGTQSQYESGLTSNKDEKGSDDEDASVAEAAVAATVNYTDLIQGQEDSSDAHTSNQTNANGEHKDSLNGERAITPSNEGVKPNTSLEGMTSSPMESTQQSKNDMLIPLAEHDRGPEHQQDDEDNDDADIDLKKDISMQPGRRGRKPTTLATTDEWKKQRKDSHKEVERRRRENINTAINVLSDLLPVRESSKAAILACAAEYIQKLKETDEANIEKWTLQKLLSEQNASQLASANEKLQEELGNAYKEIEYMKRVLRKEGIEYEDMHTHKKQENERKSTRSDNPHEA
Setting: whole 60-bp probe, lowest competitor level
Strand	fluorescence intensity
CTTATAAACAGCGCTGACGTGCTTTGACTTTGTTCCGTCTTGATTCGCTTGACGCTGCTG	72.6 a.u.
CTAGTACAGTTCATGATGGTGTGCCATCTGTACAATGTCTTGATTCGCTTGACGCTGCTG	61.4 a.u.
TCCCATTGCATTACCCACGTGTGGAAGCGTCTTCCAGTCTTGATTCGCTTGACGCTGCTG	580 a.u.
CGGGGTTAAGTTTGCATAGTGGGTGGCTTGCAGCAGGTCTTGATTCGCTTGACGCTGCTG	70.3 a.u.
TTAGATTAAGTAGGACGCATGATGTTGAGCTCTTTTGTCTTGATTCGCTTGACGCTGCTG	67.4 a.u.
CTAACGAAGGTTTGCGGGGTGGGTGACAAGCCAAGTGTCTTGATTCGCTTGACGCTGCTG	73.3 a.u.
AAATTACTAAGTTGCACCGTGGGTGACGCCGTATGAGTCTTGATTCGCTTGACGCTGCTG	72 a.u.
AAAGCGGTAATTTTTCACGTGTCCTCACATATCTATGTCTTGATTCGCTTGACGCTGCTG	1480 a.u.
CAACCGCATCGGCCCAACCTGATCTTGCAATTAGCAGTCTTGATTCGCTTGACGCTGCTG	54 a.u.
CGATGTATTTACCATCACCTGGTGATACAGCGACGGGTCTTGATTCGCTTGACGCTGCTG	169 a.u.
AACCTACATTCTATTCTCGTGATGGTTCTCGTAATTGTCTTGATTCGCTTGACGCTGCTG	206 a.u.
CTTCTGTAAATTTGTGAAGTGGGTGGACGCGCCCCGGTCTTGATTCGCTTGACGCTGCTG	83.1 a.u.
AAATTACTAAGTTGTGCCGTGGGTGACGCCGTATGAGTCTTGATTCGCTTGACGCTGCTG	80.6 a.u.
TTCAACCCTTCCAACGCCGTGACGGGCCCTCCGGACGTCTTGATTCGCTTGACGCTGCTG	41.3 a.u.
CGGGGTTAAGTTTGGCCCGTGGGTGGCTTGCAGCAGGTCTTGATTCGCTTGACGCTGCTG	64.5 a.u.
TATGTGTCCAAGAGACACATGAGCCCAAAAAGGGTAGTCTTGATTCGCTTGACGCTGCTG	78 a.u.

Series 4 — method: protein-binding microarray; form: double-stranded DNA, one strand shown; medium: in vitro; concentration: 250 nM; setting: 60-bp whole probe; with: salmon DNA 0.4 mg/ml; reference: random background probes; direction: higher = stronger binding; all sequences stand within: GCCTAGCAC … GTCTTGATTCGCTTGACGCTGCTG
Target: Interferon regulatory factor 5, full length, phosphomimetic (IRF5, Homo sapiens, UniProt Q13568-2, residues 1-514, K96S/S451D/S453D/S456D/S462D)
Strand	log fluorescence [z-score]
ATGAAATGCCACACACACACGTGCTAG	0.0474
TCATGTCCCTATTTAAGACTGTGCTAG	0.188
TTAGATTTCATTTCCGATTAGTGCTAG	2.09
ATATATGTGTATATATAATAGTGCTAG	0.54
TCATCTCTCATGTTACAACTGTGCTAG	0.692
TCAAGACTCTCTTGTCTGACTGTGCTA	-0.172
GACGGTTTCGACTATCGGAACGTGCTA	7.58
TTAGATATCAGTTTCGACTAGTGCTAG	8.56
GACGATGTCGGGTATCGAGACGTGCTA	0.659
TTAGATTTCGGGTATCGATTCGTGCTA	7.02
GACGATCTCAGTCTCGAGAGGTGCTAG	-0.0739
GACGATTTCCTTCTCCTGACGTGCTAG	0.477
TTACGACTGCTTCTCCTTTAGTGCTAG	0.676
GACGGACTGGGTCGCGGGACGTGCTAG	-0.654
TCAAGCTTCCATTTTCTACTGTGCTAG	0.971
TGAGTAATTACATAATTACGGTGCTAG	0.456
TCATCTTTCGATGCTAAAACTGTGCTA	7.87
TCAAAAATGGCTTTGCAACTGTGCTAG	-0.066
TTAGGTTTCGGTGTCGGTTAGTGCTAG	9.47
TTAGGAGTCAACTCTCTAATTGTGCTA	-0.00148
TTAGATTTCGGGACTAGATTAGTGCTA	2.86
TTAGGTTTCGGTCTCGGGTAGTGCTAG	10.4
TCAATTTCCACTTTGACACTGTGCTAG	1.15
GACGGTGTCCTTCTCCTGACGTGCTAG	-0.338

Series 5 — method: aptamer microarray, sandwich; form: DNA with 2'F-ANA; medium: in vitro; concentration: 200 nM; with: Cy3 exosite-II aptamer, 400 nM; direction: higher = stronger binding; strand: GGTTGGTGTGGTTGG
Target: Prothrombin, mature alpha-thrombin (F2, Homo sapiens, UniProt P00734)
Setting: whole 15-mer aptamer, many near background
Modification	mean fluorescence intensity [a.u.]
2'F-ANA at 1 2 3 4 6 7 9 11 12 13 14 15	61.4
2'F-ANA at 1 3 5 6 8 12 13 14 15	104
2'F-ANA at 5 6 7 11 12 13 15	113
2'F-ANA at 2 5 6 10 11 12 13	50.4
2'F-ANA at 2 3 4 5 6 9 11 12	151
2'F-ANA at 2 3 4 5 11 13	63.9
2'F-ANA at 3 6 7 9 10 11 13 14	310
2'F-ANA at 3 4 7 8 9 10 11 13	258
2'F-ANA at 1 2 6 8 10 14	64
2'F-ANA at 1 2 3 4 5 6 7 8 9 10 11 12	54.1

Series 6 — method: RNA Bind-n-Seq; form: RNA; medium: in vitro; concentration: 365 nM; reference: no-protein control; direction: higher = stronger binding
Target: RNA binding protein fox-1 homolog 2, RRM domain, GST-SBP tag (RBFOX2, Homo sapiens, UniProt O43251-10, residues 100-194)
Setting: natural RNA segment, single round, ends assumed
Target sequence (chain): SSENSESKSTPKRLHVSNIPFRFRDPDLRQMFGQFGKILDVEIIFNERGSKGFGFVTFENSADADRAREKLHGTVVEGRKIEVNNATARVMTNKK
Strand	RBNS enrichment (R)
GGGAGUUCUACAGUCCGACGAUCUGACUGUCCUUACGUCCUCUCUGUUUAGAGUCUUAUUUAUUCUGCCCUUUUAACCAGUGCUGUGAUGGAUGAAGGCCAAUCUUGUUUCCUUUCAUCUAGUACCUGGACCAUGGAAUUCUCGGGUGCCAA	0.411
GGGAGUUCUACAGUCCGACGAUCCUUUCUUAAAUAAGUUAGUGUUUAUUCAGCUUUGCUUUGCCCCUCCCCUCCCCUUAGCUUUGACUUAGGAAGCCAAGUUUUCUGCAUCAGAUUAUUGCAACAUUUAACCUUGGAAUUCUCGGGUGCCAA	0.897
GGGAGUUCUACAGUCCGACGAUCAGGACCAUCUGAGCGGGCAGCCAAACCUGCUUCACAGUAUCAAUAAAGCGGUUCUUUGAGGUCUGGCUCCUGGGCUCCGUCAGACCACCUUGUGCAGCCCUCUCAUCUUUUGGAAUUCUCGGGUGCCAA	0.509
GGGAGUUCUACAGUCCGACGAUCAUUUGUACCAGUUUGUAUUAAAGUCAGUACUACCAGCACUUUGCCAAAACUACGGAUGUCAGAGGGACCUGUUUCUAGAGUGAGUCCCAAUUACAUCAAAGGGCAACCUGUGGAAUUCUCGGGUGCCAA	0.323
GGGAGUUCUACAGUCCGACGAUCUUGCUCUAAGGAAGAUUAAAAAAAGAUAGGGAAAAGGGGGAAACUUCUUUGAAAAAUGAAACAUCUGUUACAUUAAUGUCUAAUUAUAAAAUUUUAAUCCUUACUGCAUUUGGAAUUCUCGGGUGCCAA	0.399
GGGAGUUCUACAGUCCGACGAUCCACAACCUUAUGUGUACAUGACCUGAACAUAGGAUCUGUUCUAUACAUACUGGAAUAUGUUUUAACAUAUGCCCCACCAUCCUGACUCACACGGAAGCACGGGUCUCUUCUGGAAUUCUCGGGUGCCAA	0.271
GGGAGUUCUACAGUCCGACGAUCAGAAUCUGCUGCUCUGGAAUAUUUCCCUUCGAUCUUAUCUCAGUCACUUCGUUUUUGAGAAGAGUGAUGCCUUGGGCAUGCUUUUUUUUUUUUCUUUUUUAGAAAACAGGUGGAAUUCUCGGGUGCCAA	0.539

A few entries again (series 4):
Strand	log fluorescence [z-score]
TCATCTCTCATGTTACAACTGTGCTAG	0.692
TCAAGACTCTCTTGTCTGACTGTGCTA	-0.172
GACGGTTTCGACTATCGGAACGTGCTA	7.58
TTAGATATCAGTTTCGACTAGTGCTAG	8.56
GACGATGTCGGGTATCGAGACGTGCTA	0.659
TTAGATTTCGGGTATCGATTCGTGCTA	7.02
GACGATCTCAGTCTCGAGAGGTGCTAG	-0.0739
